Measured values gathered from unrelated publications.
Each line is one published result; not all experiments were run side by side.
Organism: Acinetobacter baumannii

| Compound | test | system | conditions | MIC |
| --- | --- | --- | --- | --- |
| CC[C@H](C)[C@H](NC(=O)[C@@H](CCCNC(=N)N)NC(=O)[C@H](CCCNC(=N)N)NC(=O)[C@@H]1CCCN1C(=O)[C@@H]1CCCN1C(=O)[C@H](CCCNC(=N)N)NC(=O)[C@@H]1CCCN1C(=O)[C@H](CCCNC(=N)N)NC(=O)[C@@H]1CCCN1C(=O)[C@H](CC(C)C)NC(=O)[C@H](Cc1c[nH]cn1)NC(=O)[C@@H]1CCCN1C(=O)[C@@H]1CCCN1C(=O)[C@H](CCCCN)NC(=O)[C@H](CC(=O)O)NC(=O)[C@@H](N)C(C)C)C(=O)N[C@@H](Cc1ccc(O)cc1)C(=O)N[C@@H](CC(N)=O)C(=O)N[C@H](CCCNC(=N)N)C(N)=O | broth microdilution | DSM 30008 | 18 h, 37 °C, 25% MHB2 | 32 µg/mL |
| CC[C@H](C)[C@H](NC(=O)[C@H](CCCCN)NC(=O)[C@@H](NC(=O)[C@@H](NC(=O)[C@H](CC(C)C)NC(=O)[C@H](CCCNC(=N)N)NC(=O)[C@@H](NC(=O)[C@H](CC(C)C)NC(=O)[C@H](CCCNC(=N)N)NC(=O)CNC(=O)[C@H](Cc1ccccc1)NC(=O)[C@@H](N)CCCNC(=N)N)[C@@H](C)CC)[C@@H](C)CC)C(C)C)C(=O)N[C@@H](C)C(=O)N[C@@H](CCCNC(=N)N)C(=O)N[C@@H](CCCNC(=N)N)C(=O)N[C@@H](C)C(=O)N[C@@H](Cc1c[nH]cn1)C(=O)N[C@@H](CCCNC(=N)N)C(=O)N[C@@H](C)C(=O)N[C@@H](CCCNC(=N)N)C(=O)N[C@@H](CO)C(=O)N[C@@H](C)C(=O)N[C@H](C(=O)N[C@@H](CCCCN)C(=O)N[C@@H](C)C(=O)N[C@@H](C)C(=O)N[C@@H](CO)C(=O)N[C@@H](CC(N)=O)C(=O)N[C@H](C(=O)N[C@@H](C)C(=O)N[C@@H](C)C(=O)N[C@@H](CC(C)C)C(=O)N[C@@H](C)C(=O)N[C@@H](Cc1c[nH]cn1)C(=O)NCC(=O)N[C@@H](C)C(=O)O)C(C)C)C(C)C | bacterial growth, broth microdilution | cation-adjusted Mueller Hinton broth | 18 h, 37 °C | ≤ 0.064 µM |
| CN[C@H](CC(C)C)C(=O)N[C@H]1C(=O)N[C@@H](CC(N)=O)C(=O)N[C@H]2C(=O)N[C@H]3C(=O)N[C@H](C(=O)N[C@H](C(=O)O)c4cc(O)cc(O)c4-c4cc3ccc4O)[C@H](O)c3ccc(c(Cl)c3)Oc3cc2cc(c3O[C@@H]2O[C@H](CO)[C@@H](O)[C@H](O)[C@H]2O[C@H]2C[C@](C)(NCc3ccc(OCc4cn(CCCCC(=O)N[C@H](C(=O)N[C@@H](CCN)C(=O)N[C@H]5CCNC(=O)[C@H]([C@@H](C)O)NC(=O)[C@H](CCN)NC(=O)[C@H](CCN)NC(=O)[C@H](CC(C)C)NC(=O)[C@@H](CC(C)C)NC(=O)[C@H](CCN)NC5=O)[C@@H](C)O)nn4)c(OC)c3)[C@H](O)[C@H](C)O2)Oc2ccc(cc2Cl)[C@H]1O | broth microdilution | BAA-747 |  | 12 µM |
| CC[C@H](C)[C@H](NC(=O)[C@@H](CCCNC(=N)N)NC(=O)[C@H](CCCNC(=N)N)NC(=O)[C@@H]1CCCN1C(=O)[C@@H]1CCCN1C(=O)[C@H](CCCNC(=N)N)NC(=O)[C@@H]1CCCN1C(=O)[C@H](CCCNC(=N)N)NC(=O)[C@@H]1CCCN1C(=O)[C@H](CC(C)C)NC(=O)[C@H](Cc1ccc(O)cc1)NC(=O)[C@H](Cc1c[nH]cn1)NC(=O)[C@@H]1CCCN1C(=O)[C@H](CCCCN)NC(=O)[C@H](CC(=O)O)NC(=O)[C@@H](N)C(C)C)C(=O)N[C@@H](Cc1ccc(O)cc1)C(=O)N[C@@H](CC(N)=O)C(=O)N[C@H](CCCNC(=N)N)C(N)=O | broth microdilution | DSM 30008 | 18 h, 37 °C, 25% MHB2 | 16 µg/mL |
| CCCCCCCC(=O)N[C@@H](CCN)C(=O)N[C@H](C(=O)N[C@@H](CCN)C(=O)N[C@H]1CCNC(=O)[C@H](C)NC(=O)[C@H](CCN)NC(=O)[C@H](CCN)NC(=O)[C@H](CC(C)C)NC(=O)[C@@H](Cc2ccccc2)NC(=O)[C@H](CCN)NC1=O)[C@@H](C)O | CLSI broth microdilution | 248-01-C.248, CAMHB | 20 h, 37 °C | 0.5 µg/mL |
| CCCCCCCC(=O)N[C@@H](CCN)C(=O)N[C@H](C(=O)N[C@@H](CCN)C(=O)N[C@H]1CCNC(=O)[C@H]([C@@H](C)O)NC(=O)[C@H](CCN)NC(=O)[C@H](CCN)NC(=O)[C@H](Cc2ccc(C(F)(F)F)cc2)NC(=O)[C@@H](CC(C)C)NC(=O)[C@H](CCN)NC1=O)[C@@H](C)O | broth microdilution | colistin-resistant isolates |  | 1 to 2 µg/mL |
| CC[C@H](C)[C@H](NC(=O)[C@H](CCCNC(=N)N)NC(=O)[C@H](CO)NC(=O)[C@H](Cc1ccc(O)cc1)NC(=O)[C@@H](NC(=O)[C@@H](NC(=O)[C@H](C)NC(=O)CNC(=O)[C@H](CCCCN)NC(=O)[C@H](CCCCN)NC(=O)CCNC(=O)CCCCCNC(=O)[C@H](CCCNC(=N)N)NC(=O)CCCCCNC(=O)[C@H](CCCNC(=N)N)NC(=O)[C@H](CCCNC(=N)N)NC(=O)CCCCCNC(=O)[C@H](CCCNC(=N)N)NC(=O)[C@H](CCCNC(=N)N)NC(=O)CCCCCNC(=O)[C@H](CCCNC(=N)N)NC(=O)[C@H](CCCNC(=N)N)NC(=O)CCCCCNC(=O)[C@@H](N)CCCNC(=N)N)C(C)C)[C@@H](C)O)C(=O)N[C@@H](CO)C(=O)NCC(=O)N[C@@H](CCC(N)=O)C(=O)N[C@@H](Cc1ccc(O)cc1)C(=O)N[C@@H](CCCCN)C(=O)O | broth microdilution | ATCC 19606, Mueller-Hinton broth |  | 12 µM |
| Oc1c(Br)cc(Br)c2nc3cc(C(F)(F)F)ccc3nc12 | broth microdilution | ATCC 17978 |  | 7.88 µg/mL |
| CC(=O)N[C@H](Cc1ccc(F)cc1)C(=O)N[C@@H](CCN)C(=O)N[C@H](C(=O)N[C@@H](CCN)C(=O)N[C@H]1CCNC(=O)[C@H]([C@@H](C)O)NC(=O)[C@H](CCN)NC(=O)[C@H](CCN)NC(=O)[C@H](CC(C)C)NC(=O)[C@@H](Cc2ccccc2)NC(=O)[C@H](CCN)NC1=O)[C@@H](C)O | broth microdilution | colistin-resistant isolates |  | 16 to 32 µg/mL |
| C#CCNC(=O)[C@H]1NC(=O)[C@H]2NC(=O)[C@H](NC(=O)[C@@H]3NC(=O)[C@H](CC(N)=O)NC(=O)[C@H](NC(=O)[C@@H](CC(C)C)NC)[C@H](O)c4ccc(c(Cl)c4)Oc4cc3cc(c4O[C@@H]3O[C@H](CO)[C@@H](O)[C@H](O)[C@H]3O[C@H]3C[C@](C)(N)[C@H](O)[C@H](C)O3)Oc3ccc(cc3Cl)[C@H]2O)c2ccc(O)c(c2)-c2c(O)cc(O)cc21 | broth microdilution | BAA-747 |  | 86 µM |
| CN[C@@H]1[C@H](O)[C@H](NC)[C@H]2O[C@]3(O)[C@H](O[C@@H]2[C@H]1O)O[C@H](C)C[C@H]3NC(=O)Cc1ccc(F)cn1 | microbial growth, broth dilution | ATCC19606 |  | > 200 µg/mL |
| CC[C@H](C)[C@H](NC(=O)[C@@H](CCCNC(=N)N)NC(=O)[C@H](CCCNC(=N)N)NC(=O)[C@H](Cc1ccccc1)NC(=O)[C@H](Cc1c[nH]c2ccccc12)NC(=O)[C@H](CCCNC(=N)N)NC(=O)[C@@H]1CCCN1C(=O)[C@H](CCCNC(=N)N)NC(=O)[C@@H]1CCCN1C(=O)[C@H](CC(C)C)NC(=O)[C@H](Cc1ccc(O)cc1)NC(=O)[C@@H]1CCCN1C(=O)[C@@H]1CCCN1C(=O)[C@H](CCCCN)NC(=O)[C@H](CC(=O)O)NC(=O)[C@@H](N)C(C)C)C(=O)N[C@@H](Cc1ccc(O)cc1)C(=O)N[C@@H](CC(N)=O)C(=O)N[C@H](CCCNC(=N)N)C(N)=O | broth microdilution | DSM 30008 | 18 h, 37 °C, 25% MHB2 | 8 µg/mL |
| C=C1NC(=O)C2C[S+]([O-])CC3NC(=O)C(CSC(C)C(NC(=S)C(Cc4cnc[nH]4)NC(=O)c4csc(C(C)NC(C)=O)n4)C(=O)N[C@H](CC(C)C(=O)NC(=O)CC(C(=O)O)NC(=O)C(C)NC3=O)C(=O)N2)NC(=O)[C@@H]2CCCN2C(=O)[C@@H](CC(C)C)NC1=O (stereo partly drawn) | bacterial growth | 09987 |  | > 32 µg/mL |
| CCn1c(-c2ccc(-c3ccc(OC)cc3)cc2)c(-c2ccc(-c3ccc(OC)cc3)cc2)n(CC)c1=[Se] | broth microdilution | carbapenem-resistant | 24 h | > 40 µM |
| CC[C@H](C)[C@H](NC(=O)[C@@H](CCCNC(=N)N)NC(=O)[C@H](CCCNC(=N)N)NC(=O)[C@@H]1CCCN1C(=O)[C@@H]1CCCN1C(=O)[C@H](CCCNC(=N)N)NC(=O)[C@H](Cc1c[nH]c2ccccc12)NC(=O)[C@H](CCCNC(=N)N)NC(=O)[C@@H]1CCCN1C(=O)[C@H](CC(C)C)NC(=O)[C@H](Cc1ccc(O)cc1)NC(=O)[C@@H]1CCCN1C(=O)[C@@H]1CCCN1C(=O)[C@H](CCCCN)NC(=O)[C@H](CC(=O)O)NC(=O)[C@@H](N)C(C)C)C(=O)N[C@@H](Cc1ccc(O)cc1)C(=O)N[C@@H](CC(N)=O)C(=O)N[C@H](CCCNC(=N)N)C(N)=O | broth microdilution | DSM 30008 | 18 h, 37 °C, 25% MHB2 | 16 µg/mL |
| CCCCCCCC(=O)N[C@@H](CCN)C(=O)N[C@H](C(=O)N[C@@H](CCN)C(=O)N[C@H]1CCNC(=O)[C@H]([C@@H](C)O)NC(=O)[C@H](CCN)NC(=O)[C@H](CCN)NC(=O)[C@H](Cc2ccccc2)NC(=O)[C@@H](CCCc2ccccc2)NC(=O)[C@H](CCN)NC1=O)[C@@H](C)O | broth microdilution | colistin-resistant isolates |  | 1 to 2 µg/mL |
| CC(C)C[C@H](NC(=O)[C@@H](NC(=O)[C@H](CCCNC(=N)N)NC(=O)[C@H](CCC(N)=O)NC(=O)[C@H](Cc1ccccc1)NC(=O)[C@H](Cc1ccc(O)cc1)NC(=O)[C@H](CC(N)=O)NC(=O)[C@H](Cc1c[nH]c2ccccc12)NC(=O)[C@@H](NC(=O)[C@H](CCCNC(=N)N)NC(=O)[C@H](CCCCN)NC(=O)[C@@H](N)Cc1ccccc1)C(C)C)C(C)C)C(=O)N[C@H](C(=O)N[C@@H](CCCCN)C(=O)N[C@@H](CCCCN)C(=O)N[C@@H](Cc1ccc(O)cc1)C(N)=O)C(C)C | broth dilution | ATCC 19606 |  | < 3.1 µM |
| CCCCCCCC(=O)N[C@@H](CCN)C(=O)N[C@H](C(=O)N[C@@H](C)C(=O)N[C@H]1CCNC(=O)[C@H]([C@@H](C)O)NC(=O)[C@H](CCN)NC(=O)[C@H](CCN)NC(=O)[C@H](CC(C)C)NC(=O)[C@@H](Cc2ccccc2)NC(=O)[C@H](CCN)NC1=O)[C@@H](C)O | CLSI broth microdilution | 5075, CAMHB | 20 h, 37 °C | 4 µg/mL |

Repeated from above:
| Compound | test | system | conditions | MIC |
| --- | --- | --- | --- | --- |
| CC(C)C[C@H](NC(=O)[C@@H](NC(=O)[C@H](CCCNC(=N)N)NC(=O)[C@H](CCC(N)=O)NC(=O)[C@H](Cc1ccccc1)NC(=O)[C@H](Cc1ccc(O)cc1)NC(=O)[C@H](CC(N)=O)NC(=O)[C@H](Cc1c[nH]c2ccccc12)NC(=O)[C@@H](NC(=O)[C@H](CCCNC(=N)N)NC(=O)[C@H](CCCCN)NC(=O)[C@@H](N)Cc1ccccc1)C(C)C)C(C)C)C(=O)N[C@H](C(=O)N[C@@H](CCCCN)C(=O)N[C@@H](CCCCN)C(=O)N[C@@H](Cc1ccc(O)cc1)C(N)=O)C(C)C | broth dilution | ATCC 19606 |  | < 3.1 µM |
| CC[C@H](C)[C@H](NC(=O)[C@@H](CCCNC(=N)N)NC(=O)[C@H](CCCNC(=N)N)NC(=O)[C@@H]1CCCN1C(=O)[C@@H]1CCCN1C(=O)[C@H](CCCNC(=N)N)NC(=O)[C@H](Cc1c[nH]c2ccccc12)NC(=O)[C@H](CCCNC(=N)N)NC(=O)[C@@H]1CCCN1C(=O)[C@H](CC(C)C)NC(=O)[C@H](Cc1ccc(O)cc1)NC(=O)[C@@H]1CCCN1C(=O)[C@@H]1CCCN1C(=O)[C@H](CCCCN)NC(=O)[C@H](CC(=O)O)NC(=O)[C@@H](N)C(C)C)C(=O)N[C@@H](Cc1ccc(O)cc1)C(=O)N[C@@H](CC(N)=O)C(=O)N[C@H](CCCNC(=N)N)C(N)=O | broth microdilution | DSM 30008 | 18 h, 37 °C, 25% MHB2 | 16 µg/mL |
| CC[C@H](C)[C@H](NC(=O)[C@@H](CCCNC(=N)N)NC(=O)[C@H](CCCNC(=N)N)NC(=O)[C@@H]1CCCN1C(=O)[C@@H]1CCCN1C(=O)[C@H](CCCNC(=N)N)NC(=O)[C@@H]1CCCN1C(=O)[C@H](CCCNC(=N)N)NC(=O)[C@@H]1CCCN1C(=O)[C@H](CC(C)C)NC(=O)[C@H](Cc1c[nH]cn1)NC(=O)[C@@H]1CCCN1C(=O)[C@@H]1CCCN1C(=O)[C@H](CCCCN)NC(=O)[C@H](CC(=O)O)NC(=O)[C@@H](N)C(C)C)C(=O)N[C@@H](Cc1ccc(O)cc1)C(=O)N[C@@H](CC(N)=O)C(=O)N[C@H](CCCNC(=N)N)C(N)=O | broth microdilution | DSM 30008 | 18 h, 37 °C, 25% MHB2 | 32 µg/mL |
